Assay results gathered from unrelated publications.
Compare with care: the assays were run in different laboratories. Several values in a cell are separate wells, animals, samples, runs or records. ± marks the error that the study gave.

SMILES	tested on	test	system	conditions	scale	endpoint	value
O=C(CCOCC(COCCC(=O)NC(Cc1c(-c2cc(C(=O)O)cc(C(=O)O)c2)[nH]c2c(-c3cc(C(=O)O)cc(C(=O)O)c3)cccc12)C(=O)O)(COCCC(=O)NC(Cc1c(-c2cc(C(=O)O)cc(C(=O)O)c2)[nH]c2c(-c3cc(C(=O)O)cc(C(=O)O)c3)cccc12)C(=O)O)COCCC(=O)NC(Cc1c(-c2cc(C(=O)O)cc(C(=O)O)c2)[nH]c2c(-c3cc(C(=O)O)cc(C(=O)O)c3)cccc12)C(=O)O)NC(Cc1c(-c2cc(C(=O)O)cc(C(=O)O)c2)[nH]c2c(-c3cc(C(=O)O)cc(C(=O)O)c3)cccc12)C(=O)O (stereo not shown)	Vero E6-TMPRSS2			24 (unit not given)		CC50	> 50 µM
CC[C@H](C)[C@H](NC(=O)[C@H](CC(C)C)NC(=O)[C@H](CCCCN)NC(=O)[C@H](CCSC)NC(=O)[C@H](Cc1ccccc1)NC(=O)[C@H](C)NC(=O)[C@H](C)NC(=O)[C@@H](N)CCSC)C(=O)N[C@@H](CCC(N)=O)C(=O)N[C@@H](Cc1ccccc1)C(=O)N[C@@H](CC(C)C)C(=O)N[C@@H](C)C(=O)N[C@H](C(=O)N[C@@H](CCCCN)C(=O)NCC(=O)N[C@@H](CCC(N)=O)C(=O)N[C@@H](CCCCN)C(=O)N[C@@H](Cc1ccc(O)cc1)C(=O)N[C@H](C(=O)N[C@@H](CO)C(=O)N[C@@H](CC(C)C)C(=O)N[C@@H](C)C(=O)N[C@@H](Cc1c[nH]c2ccccc12)C(=O)N[C@@H](CCCCN)C(N)=O)C(C)C)[C@@H](C)O	human erythrocytes	hemolysis		pH 7.2	baseline: water complete hemolysis	HD50	150 µg/mL
CC[C@H](C)[C@H](NC(=O)CN)C(=O)NCC(=O)N[C@@H](C)C(=O)N[C@H](C(=O)N[C@@H](CC(C)C)C(=O)N[C@@H](CCCCN)C(=O)N[C@H](C(=O)N[C@@H](CC(C)C)C(=O)N[C@H](C(=O)N[C@H](C(=O)NCC(=O)N[C@@H](CC(C)C)C(=O)N1CCC[C@H]1C(=O)N[C@@H](C)C(=O)N[C@@H](CC(C)C)C(=O)N[C@H](C(=O)N[C@@H](CO)C(=O)N[C@@H](Cc1c[nH]c2ccccc12)C(=O)N[C@H](C(=O)N[C@@H](CCCCN)C(=O)N[C@@H](CCCNC(=N)N)C(=O)N[C@@H](CCCCN)C(=O)N[C@@H](CCCNC(=N)N)C(=O)N[C@@H](CCC(N)=O)C(=O)N[C@@H](CCC(N)=O)C(N)=O)[C@@H](C)CC)[C@@H](C)CC)[C@@H](C)O)[C@@H](C)O)C(C)C)C(C)C	sheep red blood cells	10% haemolysis		1 h, 37 °C		minimum haemolytic concentration	4.4 µM
CC[C@H](C)[C@H](NC(=O)[C@H](C)NC(=O)[C@H](CCCCN)NC(=O)[C@H](CC(C)C)NC(=O)[C@@H](N)Cc1ccccc1)C(=O)N[C@@H](CCCCN)C(=O)N[C@@H](CCCCN)C(=O)N[C@@H](Cc1ccccc1)C(=O)NCC(=O)N[C@@H](CCCCN)C(=O)N[C@@H](CCC(=O)O)C(=O)N[C@@H](Cc1ccccc1)C(=O)N[C@@H](CCCCN)C(=O)N[C@@H](CCCCN)C(=O)N[C@H](C(=O)NCC(=O)N[C@@H](C)C(=O)N[C@@H](CCCCN)C(=O)N[C@@H](CC(C)C)C(=O)N[C@@H](CCCCN)C(=O)O)[C@@H](C)CC	HeLa	cell growth or viability, MTT		8 µg/mL		viability	94.7%
O=C1NC2(CC2)COc2ncc(F)cc2[C@H]2COCCN2c2ccn3ncc1c3n2			Sprague-Dawley rat, male, thymus	oral, 5 mg/kg/day, 4 weeks		organ weight	0.676 ± 0.139 g
CSCC[C@H](NC(=O)[C@H](CCCCN)NC(=O)[C@H](CC(N)=O)NC(=O)[C@H](C)NC(=O)[C@H](C)NC(=O)[C@H](CCCCN)NC(=O)[C@H](C)NC(=O)[C@@H](NC(=O)CNC(=O)[C@H](Cc1c[nH]c2ccccc12)NC(=O)[C@H](Cc1ccc(O)cc1)NC(=O)[C@H](CC(C)C)NC(=O)[C@H](CCCCN)NC(=O)CNC(=O)[C@@H](NC(=O)[C@H](Cc1c[nH]c2ccccc12)NC(=O)CNC(=O)[C@H](Cc1ccccc1)NC(=O)[C@H](CCCCN)NC(=O)[C@H](CC(C)C)NC(=O)[C@@H](NC(=O)[C@@H](NC(=O)[C@H](CCCNC(=N)N)NC(=O)[C@H](Cc1c[nH]c2ccccc12)NC(=O)CN)[C@@H](C)O)C(C)C)C(C)C)C(C)C)C(=O)N[C@@H](C)C(=O)N[C@@H](CCCNC(=N)N)C(=O)N[C@@H](Cc1ccc(O)cc1)C(=O)N[C@@H](CC(C)C)C(=O)N[C@H](C(=O)N[C@@H](CCCCN)C(=O)N[C@@H](C)C(=O)N[C@H](C(=O)N[C@@H](Cc1ccc(O)cc1)C(=O)NCC(=O)N[C@@H](CCCNC(=N)N)C(=O)N[C@H](C(=O)N[C@@H](CCCNC(=N)N)C(=O)N[C@@H](CCCCN)C(=O)N[C@@H](CC(=O)O)C(=O)N[C@@H](C)C(=O)O)C(C)C)C(C)C)[C@@H](C)O	HUVEC	cytotoxicity, MTT		24 h, 37 °C		IC50	16.9 µM
O=c1n(CCNCCOS(=O)(=O)c2ccccc2)c(=O)n(S(=O)(=O)c2ccccc2)c(=O)n1S(=O)(=O)c1ccccc1	HUVEC	cell growth or viability, MTT		24 h		IC50	123 µg/mL
CNC(=O)C[C@H](Cc1ccccc1)NC(=O)[C@@H](Cc1ccc(Cl)cc1Cl)NC(=O)[C@H](N)Cc1ccccc1C#N	Huh-7-ACE2	CellTiter-Glo		0.391 µM, 48 h, unit not given	baseline: DMSO	viability	1.09 and 1.04 and 1.05
CCN(CCCCOc1ccc(CCC(=O)N2CCC(Cc3ccccc3)CC2)cc1OC)Cc1ccccc1	Caco-2 monolayer			40 µM, 120 min		Papp(B-A)	11.5 ± 2.72 ×10⁻⁶ cm/s
COc1cc(/C=C/C(=O)Oc2ccc(C(F)(F)F)c(C(F)(F)F)c2)ccc1O	HaCaT	MTT		24 h, 10% FBS		subcytotoxic concentration	5 µM
